Measured values pooled from the literature.
Each numbered part is a random draw from the data of one study; scales do not carry over between parts. Changes are numbered by the printed parent chain.

Block 1 — technique: RNA Bind-n-Seq; molecule type: RNA; matrix: in vitro; tested at: 1 µM; notes: whole 134-nt RNA, ends assumed; with: 150 mM KCl; baseline: input library; reading: higher = stronger binding
Target: Ras GTPase-activating protein-binding protein 1, RRM domain (G3BP1, Homo sapiens, UniProt Q13283)
Sequence of UniProt Q13283 (whole entry, looked up): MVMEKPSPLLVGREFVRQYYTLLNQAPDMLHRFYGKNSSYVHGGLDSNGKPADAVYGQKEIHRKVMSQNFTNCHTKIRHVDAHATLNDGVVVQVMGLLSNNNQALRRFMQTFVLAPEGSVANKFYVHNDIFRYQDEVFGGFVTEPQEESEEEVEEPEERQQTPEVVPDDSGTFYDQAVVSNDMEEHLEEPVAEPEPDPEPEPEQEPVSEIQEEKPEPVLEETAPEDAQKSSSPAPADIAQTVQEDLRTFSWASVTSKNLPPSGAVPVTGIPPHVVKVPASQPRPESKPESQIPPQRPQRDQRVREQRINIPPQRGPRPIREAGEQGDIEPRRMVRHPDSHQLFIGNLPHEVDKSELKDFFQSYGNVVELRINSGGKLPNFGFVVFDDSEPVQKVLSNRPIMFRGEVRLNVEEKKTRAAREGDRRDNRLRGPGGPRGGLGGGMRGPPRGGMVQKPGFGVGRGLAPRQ
All sequences stand within: GGGAGUUCUACAGUCCGACGAUC … UGGAAUUCUCGGGUGUCAAGG
Strand	log2 enrichment
UACCAUGGUGGAAGUUCCCGUUCUCGUAGCAGUAUUUUCCAUGCAGGAAAAAGCCAAGGACUACAUGAAAACAACAUACCUGACAAUGAA	0.0268
AAGUCCUGUGCUACACAUCGUAUGUACCGAAUCGGGGCCCCGGCCCCGGCCCCGGGGAAAGUAUUAUGUUACGCCGUUCGGAUCUGCACU	-0.819
CCUGUGCUACACAUCGUAUGUACCGAAUCAAACCCCCCCAAACCCCCAAACCCCCCCAAAAAAGUAUUAUGUUACGCCGUUCGGAUCUGC	-0.525
CCUGUGCUACACAUCGUAUGUACCGAAUCGGGGUUUUUUUGGUUUUUUUGGGUUUUUUUGGAAAGUAUUAUGUUACGCCGUUCGGAUCUG	-0.195
UAACUUUAGAGGAGGAUCUGAUGGAUAUGGCGGUGGACGUGGAUUUGGGGAUGGCUAUAAUGGGUAUGGAGGAGGACCUGGAGGUGGCAA	-0.677
CCUGUGCUACACAUCGUAUGUACCGAAUCGGGGCCCCCCGGGCCCCCCGGGCCCCCCGGGGAAAGUAUUAUGUUACGCCGUUCGGAUCUG	-0.642
ACCAUGCAGGUGGGCAUCUUUGGAAAGUGGGGCAAGGGGGGGAUAGGGAGGGGGGUAACACUUUGGGAACAGGUGGUCCCAGGUCGUUUC	-0.603
UCCUGUGCUACACAUCGUAUGUACCGAAUCAAACCCCCCCAAACCCCCAAACCCCCAAAAAAGUAUUAUGUUACGCCGUUCGGAUCUGCA	-0.196
GUCCUGUGCUACACAUCGUAUGUACCGAAUCAAACCCCCAAAUUUUUUUAAAUUUAAAAAAGUAUUAUGUUACGCCGUUCGGAUCUGCAC	-0.678

Block 2 — technique: DHFR PCA, deep sequencing; matrix: yeast; with: (+)-ABA 710 µM; baseline: wild-type fitted maximum; reading: higher = stronger binding
Target: ABI1, truncated, D143A, DHFR fusion (Arabidopsis thaliana)
Notes: methotrexate growth selection, single substitutions
Starting sequence: PYL1, truncated, DHFR fusion (Arabidopsis thaliana); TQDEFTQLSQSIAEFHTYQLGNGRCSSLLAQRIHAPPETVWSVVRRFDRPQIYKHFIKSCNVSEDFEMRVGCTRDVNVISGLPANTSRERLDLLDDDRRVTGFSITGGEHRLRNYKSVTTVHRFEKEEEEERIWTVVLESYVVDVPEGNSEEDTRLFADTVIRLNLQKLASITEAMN
Variant	relative binding score
G81A	76%
S59I	91.1%
V118E	14.1%
M68F	105%
F157V	87%
C72G	95.1%
E14W	82.4%
V44C	95.5%
N85F	96.3%
N22E	105%
L166Q	84.7%
F124S	100%
L91T	8.06%
I57G	7.96%
E174C	95.3%
S140K	28.1%
G71A	69.7%

Block 3 — target: CCND3, cyclin fold, Cln2 fusion (human); technique: yeast growth competition, sequencing; matrix: yeast; notes: weak parent motif; baseline: not given; reading: higher = stronger binding
Starting sequence: PKMYT1 docking peptide (human); SFEPRNLLSLFED; partner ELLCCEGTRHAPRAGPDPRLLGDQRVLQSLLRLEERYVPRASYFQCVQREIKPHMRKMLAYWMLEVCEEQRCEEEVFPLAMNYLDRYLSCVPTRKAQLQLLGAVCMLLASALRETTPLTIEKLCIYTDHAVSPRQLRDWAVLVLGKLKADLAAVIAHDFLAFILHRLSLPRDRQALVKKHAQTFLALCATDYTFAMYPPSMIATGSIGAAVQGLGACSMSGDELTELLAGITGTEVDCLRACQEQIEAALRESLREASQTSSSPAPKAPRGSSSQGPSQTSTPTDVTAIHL
Variant	normalised enrichment score
SFENRNLLSLFED [P4N]	0.13
SFEERNLLSLFED [P4E]	0.122
SFEPRNLLSLPED [F11P]	0.09
SFEPRWLLSLFED [N6W]	0.157
SIEPRNLLSLFED [F2I]	0.0691
SFEPHNLLSLFED [R5H]	-0.0206
SFEPRNKLSLFED [L7K]	0.134
SFEPRNLWSLFED [L8W]	0.0272
SFEPRNLLSLFEF [D13F]	0.111
SFEPRNLLSPFED [L10P]	0.0588
SFSPRNLLSLFED [E3S]	0.0189
SFEPWNLLSLFED [R5W]	0.1
TFEPRNLLSLFED [S1T]	0.0977
SFERRNLLSLFED [P4R]	0.115
SFEPRELLSLFED [N6E]	0.137
SFEPRILLSLFED [N6I]	0.129
SFEPRNLMSLFED [L8M]	0.0792
SFEPRNLLSLFEI [D13I]	0.09
SFEPRNLLSAFED [L10A]	0.0707
SFEPRNLLSLEED [F11E]	0.0375
SFEPRNGLSLFED [L7G]	0.112
STEPRNLLSLFED [F2T]	0.167
SFEPRNLLSLSED [F11S]	0.134
SFEPRNLLRLFED [S9R]	0.0586
SFEPRNLLSLFVD [E12V]	0.0476

Block 4 — target: JDP2, bZIP domain (human); technique: DHFR protein complementation; matrix: yeast; baseline: wild-type JUN-FOS pair; reading: higher = stronger binding
Notes: single substitutions, most at no-binding floor
Starting sequence: JUN, bZIP domain (human); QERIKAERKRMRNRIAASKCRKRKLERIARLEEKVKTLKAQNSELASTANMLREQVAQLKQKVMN; partner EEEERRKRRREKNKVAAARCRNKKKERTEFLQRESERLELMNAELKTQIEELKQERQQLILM
Variant	binding fitness
T48E	0.221 natural log
K36S	0.314 natural log
A46L	0.275 natural log
N42F	0.196 natural log
M51F	0.321 natural log
R30G	0.344 natural log
E54H	0.222 natural log
K34I	0.212 natural log
E54I	0.256 natural log
L31A	0.259 natural log
E33I	0.158 natural log
V56L	0.16 natural log
Q55A	0.315 natural log
A49Q	0.198 natural log
Q55V	0.191 natural log
K39C	0.23 natural log
L45F	0.202 natural log
K39Y	0.22 natural log
S47T	0.225 natural log

Block 5 — technique: protein binding microarray; molecule type: double-stranded DNA, one strand shown; matrix: in vitro; tested at: not given; baseline: not given; reading: higher = stronger binding
Target: Histone acetyltransferase KAT6A, both winged helices, GST fusion (KAT6A, Homo sapiens, UniProt Q92794, residues 1-181)
Notes: 8-mer, flanks averaged, mean of 2 arrays, mostly near background
Target sequence (chain): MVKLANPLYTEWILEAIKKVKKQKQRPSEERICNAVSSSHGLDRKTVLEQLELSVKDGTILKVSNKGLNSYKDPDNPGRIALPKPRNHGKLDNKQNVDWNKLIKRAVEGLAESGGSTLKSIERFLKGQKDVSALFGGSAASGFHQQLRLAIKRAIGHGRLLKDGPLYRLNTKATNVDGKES
Strand	E-score
GCCCCTCC	-0.103
CCTTTGAC	-0.056
AACCCTCT	-0.17
CATGCTAA	-0.0898
GCGTATAA	0.205
ACCTGGGA	-0.194
AGGTTCAA	-0.0399
CGGTGGAA	0.00664
TCACAGCA	-0.0395
CCATTGAC	-0.0548
GATCAGCA	-0.127
CTGTCCAC	-0.0625
GGTGTGTA	0.0323
AGCTAGCT	-0.299
AAATTTTC	-0.00167
ACCCGTCC	0.167
AGGCCACC	-0.16
CTATGTTA	0.00647
TACGGTAA	0.171
AAGCAGCG	0.083
CAATCTTA	-0.0807
ACTTCTCA	-0.233
AATCTCGT	-0.0939
CGTCTACA	0.0799
CCTTTTCA	-0.18

For quick reference, copied from above (block 5):
Strand	E-score
ACCTGGGA	-0.194
AGGTTCAA	-0.0399
CGGTGGAA	0.00664
TCACAGCA	-0.0395
CCATTGAC	-0.0548
GATCAGCA	-0.127
CTGTCCAC	-0.0625
GGTGTGTA	0.0323
AGCTAGCT	-0.299
AAATTTTC	-0.00167
